Literature values that unrelated publications cite.
Lines come from different studies, so protocols differ. ± gives the spread as reported.
Chain of UniProt P35368 (whole entry, looked up): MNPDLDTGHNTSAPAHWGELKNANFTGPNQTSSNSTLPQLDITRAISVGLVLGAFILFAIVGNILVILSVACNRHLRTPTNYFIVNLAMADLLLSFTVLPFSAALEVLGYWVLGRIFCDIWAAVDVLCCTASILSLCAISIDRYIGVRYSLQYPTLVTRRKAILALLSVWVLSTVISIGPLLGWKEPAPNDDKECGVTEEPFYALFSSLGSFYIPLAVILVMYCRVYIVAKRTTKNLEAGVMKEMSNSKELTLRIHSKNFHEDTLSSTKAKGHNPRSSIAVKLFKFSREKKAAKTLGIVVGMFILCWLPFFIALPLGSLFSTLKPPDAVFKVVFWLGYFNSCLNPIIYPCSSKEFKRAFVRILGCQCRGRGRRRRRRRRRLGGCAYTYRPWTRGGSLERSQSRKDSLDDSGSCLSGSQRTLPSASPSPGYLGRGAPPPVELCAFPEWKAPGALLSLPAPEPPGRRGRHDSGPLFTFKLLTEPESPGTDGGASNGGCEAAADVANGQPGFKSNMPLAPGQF
Chain of UniProt Q01959 (whole entry, looked up): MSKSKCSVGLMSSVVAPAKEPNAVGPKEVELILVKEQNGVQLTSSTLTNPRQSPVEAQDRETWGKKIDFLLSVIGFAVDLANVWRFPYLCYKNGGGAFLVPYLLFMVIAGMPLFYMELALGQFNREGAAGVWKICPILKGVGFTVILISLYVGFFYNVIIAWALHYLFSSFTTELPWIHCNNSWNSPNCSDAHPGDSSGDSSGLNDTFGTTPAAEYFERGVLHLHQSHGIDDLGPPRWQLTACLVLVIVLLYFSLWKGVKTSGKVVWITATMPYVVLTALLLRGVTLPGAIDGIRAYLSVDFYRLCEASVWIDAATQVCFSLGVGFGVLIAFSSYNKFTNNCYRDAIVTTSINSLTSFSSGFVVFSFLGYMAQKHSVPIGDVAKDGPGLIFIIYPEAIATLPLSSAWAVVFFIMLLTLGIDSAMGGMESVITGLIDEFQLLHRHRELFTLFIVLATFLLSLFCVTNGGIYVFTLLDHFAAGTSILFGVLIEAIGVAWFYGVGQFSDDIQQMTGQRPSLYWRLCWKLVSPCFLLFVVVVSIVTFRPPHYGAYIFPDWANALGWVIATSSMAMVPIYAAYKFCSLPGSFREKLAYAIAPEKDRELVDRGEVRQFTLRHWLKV

Structure (SMILES)	target	assay	test system	setting	measurement	result
c1ccc(C2(N3CCCCC3)CCCCC2)cc1	human α3β4 nicotinic acetylcholine receptor	inhibitor	SH-SY5Y		IC50	~10000 nM
C=CCN(CC=C)CCc1c[nH]c2ccccc12	ADRA1B (Homo sapiens, UniProt P35368)	binding	cloned human receptor	added: [3H]prazocin	Ki	1370 nM
CNC(C)C(=O)c1cccc(Br)c1 (centres unmarked)	SERT	uptake			IC50	2000 nM
NCCc1ccc(Oc2ccc(O)cc2)c(I)c1	TAAR1, mouse				EC50	22.4 nM
NC1Cc2cc3c(cc2C1)OCO3	serotonin transporter	[3H]serotonin uptake	synaptosomes		IC50	512 nM
COC(=O)[C@H](c1ccc(F)cc1)[C@H]1CCCCN1 (racemic)	serotonin transporter	binding		added: [3H]citalopram	IC50	> 10000 nM
C[C@]12CCC(=O)CC1=CC[C@@H]1[C@@H]2CC[C@]2(C)C(=O)CC[C@@H]12	ketosteroid isomerase wild-type	substrate		pH 7.0, 3.3 % methanol	kcat	21200 ± 800 s⁻¹
CCCC(C(=O)c1ccc(O)c(OC)c1)N1CCCC1 (centres unmarked)	dopamine transporter, rat	dopamine uptake, inhibitor	brain synaptosomes		IC50	784 ± 87 nM
C=CCN(CC=C)CCc1c[nH]c2ccc(Br)cc12	SLC6A3 (Homo sapiens, UniProt Q01959)				Ki	2460 nM
COc1cc2c(cc1C)CC(N)C2 (centres unmarked)	noradrenaline transporter	[3H]noradrenaline uptake	synaptosomes		IC50	11600 nM
CCC[C@@H](C(=O)c1ccc2c(c1)OCO2)N1CCCC1	norepinephrine transporter, rat	norepinephrine uptake, inhibitor	brain synaptosomes		IC50	9.8 ± 1 nM

For quick reference, copied from above:
Structure (SMILES)	target	assay	test system	setting	measurement	result
COc1cc2c(cc1C)CC(N)C2 (centres unmarked)	noradrenaline transporter	[3H]noradrenaline uptake	synaptosomes		IC50	11600 nM
